Measurements pooled from the literature.
Values joined by “and” are separate records of one study, mostly repeats; a detail may differ. Numbers after ± are the reported error. In brackets after ≈: the same amount, converted by molar mass.
GLP1R: Glucagon-like peptide 1 receptor (GLP1R, Homo sapiens, UniProt P43220)
Chain of UniProt P21333 (whole entry, looked up): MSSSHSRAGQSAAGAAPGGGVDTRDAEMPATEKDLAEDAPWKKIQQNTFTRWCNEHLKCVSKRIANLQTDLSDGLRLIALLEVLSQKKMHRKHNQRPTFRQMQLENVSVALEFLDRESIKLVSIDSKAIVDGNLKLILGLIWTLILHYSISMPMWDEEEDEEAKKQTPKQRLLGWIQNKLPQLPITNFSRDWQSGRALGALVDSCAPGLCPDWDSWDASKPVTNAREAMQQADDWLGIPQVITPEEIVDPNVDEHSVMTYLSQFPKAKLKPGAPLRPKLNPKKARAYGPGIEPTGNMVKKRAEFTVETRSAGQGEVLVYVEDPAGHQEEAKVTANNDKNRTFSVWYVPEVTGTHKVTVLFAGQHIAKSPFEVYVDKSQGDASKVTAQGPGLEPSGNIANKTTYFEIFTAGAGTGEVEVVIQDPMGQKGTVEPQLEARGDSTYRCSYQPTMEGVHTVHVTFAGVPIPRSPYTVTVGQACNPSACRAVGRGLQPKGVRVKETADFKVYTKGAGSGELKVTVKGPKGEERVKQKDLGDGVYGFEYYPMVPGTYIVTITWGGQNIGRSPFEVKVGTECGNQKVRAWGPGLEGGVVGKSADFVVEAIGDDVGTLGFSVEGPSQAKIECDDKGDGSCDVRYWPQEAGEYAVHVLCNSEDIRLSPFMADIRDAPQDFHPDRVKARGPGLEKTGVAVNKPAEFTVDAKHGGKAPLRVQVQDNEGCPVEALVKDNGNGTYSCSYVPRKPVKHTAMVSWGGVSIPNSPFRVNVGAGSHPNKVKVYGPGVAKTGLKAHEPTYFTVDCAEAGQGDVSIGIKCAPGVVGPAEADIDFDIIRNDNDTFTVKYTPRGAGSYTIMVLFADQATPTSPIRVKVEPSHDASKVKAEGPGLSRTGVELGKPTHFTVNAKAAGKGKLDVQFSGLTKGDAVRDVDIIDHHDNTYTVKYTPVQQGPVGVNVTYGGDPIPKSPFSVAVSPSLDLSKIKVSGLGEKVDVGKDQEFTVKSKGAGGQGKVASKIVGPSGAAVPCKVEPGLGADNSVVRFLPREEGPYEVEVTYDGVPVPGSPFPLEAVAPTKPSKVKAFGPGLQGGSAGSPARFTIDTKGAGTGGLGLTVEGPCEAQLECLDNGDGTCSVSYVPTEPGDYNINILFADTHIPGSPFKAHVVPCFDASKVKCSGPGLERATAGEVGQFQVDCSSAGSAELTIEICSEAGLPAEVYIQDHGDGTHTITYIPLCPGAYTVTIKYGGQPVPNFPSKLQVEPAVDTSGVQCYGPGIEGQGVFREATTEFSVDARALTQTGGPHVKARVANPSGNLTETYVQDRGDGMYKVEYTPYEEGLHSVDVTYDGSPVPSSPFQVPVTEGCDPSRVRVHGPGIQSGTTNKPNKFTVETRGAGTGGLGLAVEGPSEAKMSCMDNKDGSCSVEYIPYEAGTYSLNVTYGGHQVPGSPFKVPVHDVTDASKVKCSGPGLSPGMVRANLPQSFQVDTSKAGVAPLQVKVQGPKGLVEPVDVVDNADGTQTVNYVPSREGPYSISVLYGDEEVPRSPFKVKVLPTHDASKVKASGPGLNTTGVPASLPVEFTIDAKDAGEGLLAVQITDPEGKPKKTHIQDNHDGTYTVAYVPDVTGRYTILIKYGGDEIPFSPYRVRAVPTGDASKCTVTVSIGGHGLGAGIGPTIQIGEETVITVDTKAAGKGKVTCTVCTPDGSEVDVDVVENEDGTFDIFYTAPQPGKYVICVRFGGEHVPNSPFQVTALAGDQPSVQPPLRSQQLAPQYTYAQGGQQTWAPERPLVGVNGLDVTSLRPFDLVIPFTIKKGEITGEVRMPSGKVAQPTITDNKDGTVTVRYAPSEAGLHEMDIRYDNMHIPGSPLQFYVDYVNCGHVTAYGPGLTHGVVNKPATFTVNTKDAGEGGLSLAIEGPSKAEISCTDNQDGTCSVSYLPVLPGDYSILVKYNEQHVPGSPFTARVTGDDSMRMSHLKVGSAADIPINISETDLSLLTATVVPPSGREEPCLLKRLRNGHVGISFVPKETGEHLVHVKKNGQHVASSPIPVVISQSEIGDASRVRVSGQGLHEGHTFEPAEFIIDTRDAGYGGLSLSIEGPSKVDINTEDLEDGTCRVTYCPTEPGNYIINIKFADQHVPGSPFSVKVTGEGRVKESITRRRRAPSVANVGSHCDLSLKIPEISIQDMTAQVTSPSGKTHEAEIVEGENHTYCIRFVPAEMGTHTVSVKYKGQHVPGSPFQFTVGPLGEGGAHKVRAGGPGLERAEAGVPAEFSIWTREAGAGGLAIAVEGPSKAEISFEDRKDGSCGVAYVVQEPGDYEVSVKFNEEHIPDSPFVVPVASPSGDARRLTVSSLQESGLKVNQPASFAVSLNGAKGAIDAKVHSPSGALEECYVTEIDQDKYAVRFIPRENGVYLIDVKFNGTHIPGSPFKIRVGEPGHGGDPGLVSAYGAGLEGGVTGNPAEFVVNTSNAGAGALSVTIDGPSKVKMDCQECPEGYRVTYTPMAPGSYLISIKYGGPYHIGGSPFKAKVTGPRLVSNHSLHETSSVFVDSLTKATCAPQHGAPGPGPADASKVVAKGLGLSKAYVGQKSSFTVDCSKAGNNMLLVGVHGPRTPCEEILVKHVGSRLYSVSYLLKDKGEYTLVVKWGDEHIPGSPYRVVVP

SMILES	tested on	test	system	setting	scale	measurement	value
C[C@]12CC[C@H](O)C[C@H]1CC[C@@H]1[C@@H]2CC[C@]2(C)[C@@H](c3ccc(=O)oc3)CC[C@]12O	–	–	female nude mouse LCC2 xenograft	1.0 mg/kg, day 1, tamoxifen-resistant	–	tumour volume	22.4 mm3 and 34.1 mm3 and 16.1 mm3 and 19.8 mm3 and 28 mm3 and 16.9 mm3 and 34 mm3
CC[C@H](C)[C@H](NC(=O)[C@H](Cc1ccccc1)NC(=O)[C@H](CCC(=O)O)NC(=O)[C@H](CCCNC(=N)N)NC(=O)[C@H](C)NC(=O)[C@H](C)NC(=O)[C@H](CCC(N)=O)NC(=O)[C@H](CCC(=O)O)NC(=O)[C@H](CCC(=O)O)NC(=O)[C@H](CC(C)C)NC(=O)[C@H](Cc1ccc(O)cc1)NC(=O)[C@H](CO)NC(=O)[C@H](CO)NC(=O)[C@H](CCCCNc1c(NCCCCCN(O)C(=O)CCC(=O)NCCCCCN(O)C(=O)CCC(=O)NCCCCCN(O)C(C)=O)c(=O)c1=O)NC(=O)[C@H](CC(=O)O)NC(=O)[C@H](CO)NC(=O)[C@@H](NC(=O)[C@H](Cc1ccccc1)NC(=O)[C@@H](NC(=O)CNC(=O)[C@H](CCC(=O)O)NC(=O)[C@H](C)NC(=O)CCc1cnc[nH]1)[C@@H](C)O)[C@@H](C)O)C(=O)N[C@@H](C)C(=O)N[C@@H](Cc1c[nH]c2ccccc12)C(=O)N[C@@H](CC(C)C)C(=O)N[C@H](C(=O)N[C@@H](CCCCNc1c(NCCCCCN(O)C(=O)CCC(=O)NCCCCCN(O)C(=O)CCC(=O)NCCCCCN(O)C(C)=O)c(=O)c1=O)C(=O)NCC(=O)N[C@@H](CCCNC(=N)N)C(=O)N[C@@H](CCCCNC(=O)COCCOCCNC(=O)COCCOCCNC(=O)CC[C@H](NC(=O)CCCCCCCCCCCCCCCCC(=O)O)C(=O)O)C(=O)O)C(C)C	GLP1R	cAMP reporter gene, agonist, CRE luciferase	BHK	with Zr, 0% HSA	–	EC50	0.13 nM
CCCCC1(CCCC)CN(c2ccccc2)c2cc(SC)c(OCC(=O)N[C@@H](C(=O)NCC(=O)O)c3ccccc3)cc2S(=O)(=O)C1	–	refers to: LDL cholesterol	human, serum	10 mg once daily, day 14	–	serum LDL-C	89.3 mg/dL
CN(CC[C@H](N)CC(=O)N[C@H]1C=C[C@H](n2ccc(N)nc2=O)O[C@@H]1C(=O)O)C(=N)N	–	translation	rabbit reticulocyte lysate	–	–	IC50	0.007 ± 0.001 µM
Fc1ccc(C(OCCN2CCN(CCCc3ccccc3)CC2)c2ccc(F)cc2)cc1	–	–	mouse, nucleus accumbens	i.p., 20 mg/kg	–	decay time of light-evoked dopamine release	increased
CCCCCCCCCCCCCCCCCCOCC(COP(=O)([O-])OCC[N+](C)(C)C)OC (stereo not shown)	–	calcium response, decay phase	N2a, mouse	10 µM, added: ATP 300 µM	–	inhibition	41%
O=c1c(O)c(-c2ccc(O[C@@H]3O[C@H](CO)[C@@H](O)[C@H](O)[C@H]3O)c(O)c2)oc2cc(O)cc(O)c12	–	DMPD radical scavenging	–	–	–	IC50	8.15 µg/mL
NNc1ccccc1	–	hydrazine ligation kinetics, absorbance	–	concentration not given, 35 s, added: 2-formylphenylboronic acid	–	normalised absorbance	0.899
CC(C)(C)CC(C)(C)c1ccc(OCCOCC[N+](C)(C)Cc2ccccc2)cc1	–	–	C57BL/6J mouse, male, hippocampal slices, Schaffer collateral-CA1	10 nM, 60 min	baseline: vehicle	fEPSP slope	increased
FC(F)(F)c1ccc2c(c1)[C@@H]1CNC[C@H]2C1	–	intermittent two-bottle choice	Wistar rat, 20% ethanol drinking	subcutaneous, 1 mg/kg, 6 h	baseline: ethanol over total fluid intake	ethanol preference	46 ± 3%
O=C1C2CC3CC(C2)CC1C3	–	pH gradient	Escherichia coli inverted membrane vesicles	–	–	IC50	> 1000 µM
C[C@H]1O[C@@H](O[C@H]2CC[C@@]3(C)[C@@H](CC[C@]4(C)[C@@H]3C=C[C@]35OC[C@@]6(CCC(C)(C)C[C@H]63)[C@@H](O)C[C@]54C)[C@]2(C)CO)[C@H](O)[C@@H](O[C@@H]2O[C@H](CO)[C@@H](O)[C@H](O)[C@H]2O)[C@H]1O	–	H&E staining	AAV8-null control mice, no ethanol, liver	dose not given, high dose	–	steatosis area	5.51% and 5.79% and 4.59% and 5.2% and 4.78% and 7.24% and 5.08%
C[C@]1(CO)Cc2ncn(-c3ccc(C#N)c(Cl)c3)c2C(=O)O1	–	aldosterone synthesis, inhibitor, refers to: sodium	healthy Japanese adults, urine	40 mg, 0-24 h at steady state, multiple rising dose	–	urinary excretion	127 mmol
C[C@H]1CN(c2n[nH]c3nc(N[C@H]4CC[C@H](NS(=O)(=O)CCC(F)(F)F)CC4)ncc23)CCO1	Filamin-A (Homo sapiens, UniProt P21333)	competitor, Kinobeads competition	human cell extract	0.032 µM	baseline: vehicle	relative abundance	1.48
Cc1nc(Nc2ccc(CC(=O)O)cc2)nc(Nc2ccc(F)c(C(F)(F)F)c2)c1C	–	refers to: ACC1	C57BL/6J mice, high-fat diet, liver	intraperitoneal, 0.3 mg/kg daily, 60% fat diet 12 weeks, dosed last four	baseline: vehicle	mRNA level	decreased
CN1CCN(S(=O)(=O)c2cc([N+](=O)[O-])ccc2N(CCOS(C)(=O)=O)CCOS(C)(=O)=O)CC1	–	–	NSG mice, sample BE PDX	intraperitoneal, 25 mg/kg weekly x3	–	event-free survival	> 372 days
CC[C@H](C)[C@H](NC(=O)[C@H](Cc1ccccc1)NC(=O)[C@H](CCC(=O)O)NC(=O)[C@H](CCCNC(=N)N)NC(=O)[C@H](C)NC(=O)[C@H](C)NC(=O)[C@H](CCC(N)=O)NC(=O)[C@H](CCC(=O)O)NC(=O)[C@H](CCC(=O)O)NC(=O)[C@H](CC(C)C)NC(=O)[C@H](Cc1ccc(O)cc1)NC(=O)[C@H](CO)NC(=O)[C@H](CO)NC(=O)[C@@H](NC(=O)[C@H](CC(=O)O)NC(=O)[C@H](CO)NC(=O)[C@@H](NC(=O)[C@H](Cc1ccccc1)NC(=O)[C@@H](NC(=O)CNC(=O)[C@H](CCC(=O)O)NC(=O)[C@H](C)NC(=O)CCc1cnc[nH]1)[C@@H](C)O)[C@@H](C)O)C(C)C)C(=O)N[C@@H](C)C(=O)N[C@@H](Cc1c[nH]c2ccccc12)C(=O)N[C@@H](CC(C)C)C(=O)N[C@H](C(=O)N[C@@H](CCCCNc1c(NCCCCCN(O)C(=O)CCC(=O)NCCCCCN(O)C(=O)CCC(=O)NCCCCCN(O)C(C)=O)c(=O)c1=O)C(=O)NCC(=O)N[C@@H](CCCNC(=N)N)C(=O)N[C@@H](CCCCNC(=O)COCCOCCNC(=O)COCCOCCNC(=O)CC[C@H](NC(=O)CCCCCCCCCCCCCCCCC(=O)O)C(=O)O)C(=O)NCC(=O)NCC(=O)N[C@@H](CO)C(=O)N[C@@H](CCCCNc1c(NCCCCCN(O)C(=O)CCC(=O)NCCCCCN(O)C(=O)CCC(=O)NCCCCCN(O)C(C)=O)c(=O)c1=O)C(=O)O)C(C)C	GLP1R	cAMP reporter gene, agonist, CRE luciferase	BHK	with Zr, 0% HSA	–	EC50	0.0079 nM
CC[C@H](C)[C@@H]1NC(=O)[C@@H]2CCCN2C(=O)[C@H](CC(C)C)NC(=O)[C@H](CC(C)C)NC(=O)CNC(=O)[C@@H](NC(=O)[C@@H](NC(=O)[C@H](CC(=O)O)NC(=O)CNC(=O)[C@@H](NC(=O)[C@H](C)NC(=O)CNC(=O)[C@H](CCCCN)NC(=O)[C@H](CC(C)C)NC(=O)[C@H](CC(C)C)NC(=O)[C@H](CCCCN)NC(=O)CNC(=O)[C@@H](NC(=O)[C@@H](N)CC(C)C)C(C)C)C(C)C)C(C)C)CSSC[C@@H](C(=O)O)NC1=O	–	RNA-seq, refers to: Egln3	mouse, traumatic brain injury model, frontal cortex and hippocampus	dose not given	baseline: TBI alone	log2 fold change	-1.37
CCCCC1CNC2CCc3ccc(OC)cc3C12.Cl (racemic)	–	RNA sequencing, refers to: complex III subunit genes	SAMP8 mice, hippocampus	intracerebroventricular, 1.0 µg/µL, 24 h	baseline: vehicle	mRNA level	increased
[Cl][Ru-]([Cl])([Cl])[Cl].[Na+].c1ccc2[nH]ncc2c1.c1ccc2[nH]ncc2c1	–	CT, RECIST 1.1	human	780 mg/m2	–	duration of response	25 weeks
COc1cc(CCC[P+](c2ccccc2)(c2ccccc2)c2ccccc2)c(OC)c2c1OCO2.[I-]	OVCAR-8	SRB	–	–	–	GI50	-5.63 log M
Cc1cn(-c2cc(NC(=O)c3ccc(C)c(Nc4nccc(-c5cccnc5)n4)c3)cc(C(F)(F)F)c2)cn1	–	–	Alzheimer's disease patients	300 mg, 12 months, group mean	direction not given	MMSE score	16.2 ± 4.6
CC[C@@H](C)[C@@H](NC(=O)[C@@H](Cc1ccc(O)cc1)NC(=O)[C@H]1CCCN1C(=O)[C@@H](CCCNC(=N)N)NC(=O)[C@H](N)Cc1c[nH]cn1)C(=O)N[C@H](C)C(=O)N[C@H](Cc1c[nH]cn1)C(=O)N[C@H](CCCNC(=N)N)C(=O)N[C@H](CCCCNC(=O)c1cccc(S(=O)(=O)F)c1)C(=O)N[C@H](Cc1ccc(O)cc1)C(=O)N[C@H](CO)C(=O)N[C@H](Cc1ccccc1)C(N)=O	–	ex vivo flow cytometry	GL261-Luc brain tumour mice, tumour	dose not given	–	IFN-γ+ CD8+ T cell frequency	19.3% and 15.1% and 14.3%
CC[C@H](C)[C@H](NC(=O)[C@H](C)NC(=O)[C@H](CCCCN)NC(=O)[C@H](CC(C)C)NC(=O)[C@H](C)NC(=O)[C@@H](NC(=O)[C@H](Cc1c[nH]cn1)NC(=O)[C@H](CC(C)C)NC(=O)[C@@H](NC(=O)[C@@H](NC(=O)[C@H](CCCCN)NC(=O)[C@H](C)NC(=O)[C@H](C)NC(=O)[C@H](CO)NC(=O)[C@H](CCCCN)NC(=O)[C@H](Cc1ccccc1)NC(=O)[C@@H](NC(=O)[C@H](CCCCN)NC(=O)[C@H](CC(C)C)NC(=O)[C@H](Cc1ccccc1)NC(=O)[C@H](CO)NC(=O)[C@H](CCCCN)NC(=O)[C@H](Cc1c[nH]c2ccccc12)NC(=O)[C@H](CCCCN)NC(C)=O)[C@@H](C)O)[C@@H](C)O)C(C)C)[C@@H](C)O)C(=O)N[C@@H](CO)C(=O)N[C@@H](CO)C(N)=O	Enterobacter aerogenes	–	–	40 strains	–	MBC50	8 µg/mL (≈ 2.73 µM)
COc1c(CCC[P+](c2ccccc2)(c2ccccc2)c2ccccc2)cc2c(c1OC)OCO2.[I-]	MOLT-4	SRB	–	–	–	LC50	> -4 log M

Repeated from above:
SMILES	tested on	test	system	setting	scale	measurement	value
C[C@H]1O[C@@H](O[C@H]2CC[C@@]3(C)[C@@H](CC[C@]4(C)[C@@H]3C=C[C@]35OC[C@@]6(CCC(C)(C)C[C@H]63)[C@@H](O)C[C@]54C)[C@]2(C)CO)[C@H](O)[C@@H](O[C@@H]2O[C@H](CO)[C@@H](O)[C@H](O)[C@H]2O)[C@H]1O	–	H&E staining	AAV8-null control mice, no ethanol, liver	dose not given, high dose	–	steatosis area	5.51% and 5.79% and 4.59% and 5.2% and 4.78% and 7.24% and 5.08%
C[C@]1(CO)Cc2ncn(-c3ccc(C#N)c(Cl)c3)c2C(=O)O1	–	aldosterone synthesis, inhibitor, refers to: sodium	healthy Japanese adults, urine	40 mg, 0-24 h at steady state, multiple rising dose	–	urinary excretion	127 mmol
C[C@H]1CN(c2n[nH]c3nc(N[C@H]4CC[C@H](NS(=O)(=O)CCC(F)(F)F)CC4)ncc23)CCO1	Filamin-A (Homo sapiens, UniProt P21333)	competitor, Kinobeads competition	human cell extract	0.032 µM	baseline: vehicle	relative abundance	1.48
Cc1nc(Nc2ccc(CC(=O)O)cc2)nc(Nc2ccc(F)c(C(F)(F)F)c2)c1C	–	refers to: ACC1	C57BL/6J mice, high-fat diet, liver	intraperitoneal, 0.3 mg/kg daily, 60% fat diet 12 weeks, dosed last four	baseline: vehicle	mRNA level	decreased
